Experimental data pooled from the literature.
A part holds a random share of what one study measured. Numbers after ± are the reported error. Converted amounts (≈) assume the structure as drawn.
Sequence of UniProt P31424 (whole entry, looked up): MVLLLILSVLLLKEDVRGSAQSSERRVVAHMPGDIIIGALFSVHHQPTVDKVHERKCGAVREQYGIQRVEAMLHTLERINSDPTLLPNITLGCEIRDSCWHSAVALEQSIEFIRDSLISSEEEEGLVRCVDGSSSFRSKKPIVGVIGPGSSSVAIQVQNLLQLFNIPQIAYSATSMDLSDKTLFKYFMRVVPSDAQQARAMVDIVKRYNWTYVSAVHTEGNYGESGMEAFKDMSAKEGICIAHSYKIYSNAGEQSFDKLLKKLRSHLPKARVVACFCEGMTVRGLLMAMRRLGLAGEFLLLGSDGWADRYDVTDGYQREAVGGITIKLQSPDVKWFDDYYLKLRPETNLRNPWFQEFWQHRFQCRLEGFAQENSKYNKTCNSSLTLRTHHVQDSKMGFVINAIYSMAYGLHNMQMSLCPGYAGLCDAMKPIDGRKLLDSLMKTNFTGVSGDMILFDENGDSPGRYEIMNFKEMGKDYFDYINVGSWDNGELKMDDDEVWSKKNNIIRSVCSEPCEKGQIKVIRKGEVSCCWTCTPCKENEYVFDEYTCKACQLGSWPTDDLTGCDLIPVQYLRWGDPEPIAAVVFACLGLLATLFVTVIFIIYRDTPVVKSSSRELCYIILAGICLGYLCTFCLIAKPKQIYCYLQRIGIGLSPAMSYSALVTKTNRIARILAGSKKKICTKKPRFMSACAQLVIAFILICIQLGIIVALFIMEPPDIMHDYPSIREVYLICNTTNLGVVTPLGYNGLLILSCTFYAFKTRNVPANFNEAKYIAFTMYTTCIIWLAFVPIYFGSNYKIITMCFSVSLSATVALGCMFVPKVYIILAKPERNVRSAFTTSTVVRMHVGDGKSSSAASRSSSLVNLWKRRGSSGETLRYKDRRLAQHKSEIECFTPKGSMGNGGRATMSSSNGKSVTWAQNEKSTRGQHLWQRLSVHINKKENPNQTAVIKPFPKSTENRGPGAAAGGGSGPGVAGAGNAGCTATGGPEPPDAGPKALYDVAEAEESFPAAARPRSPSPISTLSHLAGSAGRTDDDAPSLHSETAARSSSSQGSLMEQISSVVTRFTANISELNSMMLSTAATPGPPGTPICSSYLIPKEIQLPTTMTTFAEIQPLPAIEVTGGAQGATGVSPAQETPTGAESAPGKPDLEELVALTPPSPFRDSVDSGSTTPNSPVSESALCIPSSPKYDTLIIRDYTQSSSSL

Block 1
Compound: CC[C@H](C)[C@H](NC(=O)[C@H](CC(C)C)NC(=O)[C@H](CCCCN)NC(=O)[C@@H](NC(=O)[C@H](C)NC(=O)[C@H](CCC(=O)O)NC(=O)[C@H](Cc1c[nH]cn1)NC(=O)[C@@H](NC(=O)[C@H](CCCCN)NC(=O)[C@H](CCC(N)=O)NC(=O)[C@H](Cc1ccccc1)NC(=O)[C@@H](NC(=O)[C@H](CCCCN)NC(=O)[C@H](CCCCN)NC(=O)[C@H](CC(C)C)NC(=O)[C@H](C)NC(=O)[C@H](CC(N)=O)NC(=O)[C@@H](N)CC(C)C)C(C)C)[C@@H](C)CC)[C@@H](C)CC)C(N)=O
Time: 18 h
Temperature: 37 °C
Measurement: MIC
Staphylococcus aureus; broth microdilution; ATCC 25923: 4 µM (≈ 8.42 µg/mL)
Pseudomonas aeruginosa; broth microdilution; ATCC 27853: 4 µM (≈ 8.42 µg/mL)
Pseudomonas aeruginosa; 4007, resistant: 2 µM (≈ 4.21 µg/mL)
Pseudomonas aeruginosa; 4891, resistant: 4 µM (≈ 8.42 µg/mL)
Klebsiella pneumoniae; broth microdilution; ATCC 13883: 8 µM (≈ 16.8 µg/mL)

Block 2
Cell line: MV4-11 AML cells
Measurement: IC50
NC1CC1c1ccc(NC(=O)C(NC(=O)OCc2ccccc2)c2ccccc2)cc1 (stereo not shown): 52.3 ± 8.9 µM
NC1CC1c1ccc(NC(=O)Cc2cccc3ccccc23)cc1 (stereo not shown): 21.8 ± 3.1 µM
NC1CC1c1ccc(NC(=O)Cc2ccc3ccccc3c2)cc1 (stereo not shown): 7.8 ± 1 µM

Single results of other studies
CC[C@H](C)[C@H](NC(=O)[C@H](C)NC(=O)CNC(=O)[C@H](CCCCN)NC(=O)[C@H](CC(N)=O)NC(=O)[C@H](CO)NC(=O)CNC(=O)[C@@H](NC(=O)[C@H](CC(=O)O)NC(=O)[C@H](C)NC(=O)[C@H](Cc1ccccc1)NC(=O)[C@H](Cc1ccccc1)NC(=O)[C@@H](NC(=O)[C@H](CC(C)C)NC(=O)[C@H](CCCCN)NC(=O)[C@H](CCC(N)=O)NC(=O)[C@H](Cc1c[nH]cn1)NC(=O)[C@H](Cc1c[nH]cn1)NC(=O)[C@@H](NC(=O)[C@H](CCC(=O)O)NC(=O)[C@H](Cc1ccc(O)cc1)NC(=O)CNC(=O)[C@H](CO)NC(=O)[C@H](CC(=O)O)NC(=O)[C@H](Cc1c[nH]cn1)NC(=O)[C@H](CCCNC(=N)N)NC(=O)[C@H](Cc1ccccc1)NC(=O)[C@H](CCC(=O)O)NC(=O)[C@H](C)NC(=O)[C@@H](N)CC(=O)O)C(C)C)C(C)C)C(C)C)C(=O)N[C@H](C(=O)NCC(=O)N[C@@H](CC(C)C)C(=O)N[C@@H](CCSC)C(=O)N[C@H](C(=O)NCC(=O)NCC(=O)N[C@H](C(=O)N[C@H](C(=O)O)C(C)C)C(C)C)C(C)C)[C@@H](C)CC
soluble peptide concentration (fibrillization, reverse phase HPLC; 2 weeks, pH 7.40, equimolar mixture supernatant): 12.1 µM

N#Cc1cnc(Nc2nc3ccccc3o2)nc1-c1cccnc1
IC50 (Metabotropic glutamate receptor 5 (Grm5, Rattus norvegicus, UniProt P31424); calcium mobilization, negative allosteric modulator, cell-based; with: glutamate at EC80): 0.5 ± 0.023 µM

For quick reference, copied from above (block 2):
NC1CC1c1ccc(NC(=O)Cc2cccc3ccccc23)cc1 (stereo not shown): 21.8 ± 3.1 µM
